# Measured values gathered from unrelated publications.
# Every numbered part comes from another study and shows a few of its results, in no order. Positions count from the first letter of the parent shown.

# Sample 1 — target: CCNE1, cyclin fold, Cln2 fusion (human); method: yeast growth competition, sequencing; medium: yeast; notes: weak parent motif; baseline: not given; direction: higher = stronger binding
# Starting sequence: WEE1 docking peptide (human); HKTFRKLRLFDTP
Variant,normalised enrichment score
L7W,1.31
R5E,0.559
L7T,0.75
F4R,0.884
K6C,0.572
R8P,-0.159
P13C,0.911
T3K,-0.422
T12N,1.2
K2A,0.619
T3C,0.322
R8D,0.386
R8I,2.01
R8G,0.495
T3A,-0.393
L9A,0.72
F4Y,0.586
P13S,-0.18
D11G,0.159
P13R,-0.523
R8V,0.552
T12W,0.932
L9T,-0.343
L7K,-0.248
H1V,-0.105

# Sample 2 — method: protein binding microarray; form: double-stranded DNA, one strand shown; medium: in vitro; concentration: not given; baseline: not given; direction: higher = stronger binding
# Target: Histone acetyltransferase KAT6A, both winged helices, GST fusion (KAT6A, Homo sapiens, UniProt Q92794, residues 1-181)
# Notes: 8-mer, flanks averaged, mean of 2 arrays, mostly near background
# Residues (chain): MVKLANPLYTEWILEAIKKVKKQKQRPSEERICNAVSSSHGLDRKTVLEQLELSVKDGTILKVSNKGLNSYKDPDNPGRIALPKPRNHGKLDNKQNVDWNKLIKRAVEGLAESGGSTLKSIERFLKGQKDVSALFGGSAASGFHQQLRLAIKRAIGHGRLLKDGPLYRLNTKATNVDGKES
Oligonucleotide,E-score
GAGTCACA,-0.0698
TGCAACAA,-0.15
CCACCTAC,-0.234
CTCCCGTC,0.19
CGCAAACA,0.0157
CGACTCGC,0.14
ATACAGTG,-0.164
ATGCAGCG,0.124
CGCGACAG,0.153
CTCATGCA,-0.187
GAAAAAAC,0.0535
GGGGGGCA,-0.221
ATTTATTA,-0.0386
ACGGGGAG,0.12
GCTGTGAA,-0.0964
CCGAATCG,0.158
ATCGCTAC,0.154
GGACCCGA,0.0936
ATGACTGC,-0.0901
AGAATATG,-0.0872
GATATTGA,-0.138
GATATCAC,-0.0752
AAGGACGA,-0.0592
CGCCTGGC,0.171
AGAATCAA,-0.149

# Sample 3 — method: RNA Bind-n-Seq; form: RNA; medium: in vitro; concentration: 365 nM; baseline: no-protein control; direction: higher = stronger binding
# Target: RNA binding protein fox-1 homolog 2, RRM domain, GST-SBP tag (RBFOX2, Homo sapiens, UniProt O43251-10, residues 100-194)
# Notes: natural RNA segment, single round, ends assumed
Oligonucleotide,RBNS enrichment (R)
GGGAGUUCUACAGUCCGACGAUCUCCAGGAGACUUUGCCUUGAGGGUGCCACAGGUGGAGAGAUAAAGAUAGCUUUUGAAGCUUGAACACAUGCCAGUGAGAUGAAAGUUGGCCUUAGCAACUGCCCAGGUCCUGGAAUUCUCGGGUGCCAA,0.585
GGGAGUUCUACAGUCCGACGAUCCCCAGCUCCCCUCACUAUCUUUUGACACUAAGAUGGAAGGUUACUAAGUUGCAGGAACAGGAUGAAAAUUCUUUAUUACCCUCUUCAACUUUUAGGACGAGCACUUGGGAUGGAAUUCUCGGGUGCCAA,0.389
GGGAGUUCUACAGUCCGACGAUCUGCUGACUCUUGGAGAGGACCAAAUUACUUUGUAGUAUUUCCCCCGUUUGUGUAAUGUCCUGAAACCUUGGAGAGGUUCCAGAAUACUUCUGUAUAUAGGGCACAGGUGAUGGAAUUCUCGGGUGCCAA,0.662
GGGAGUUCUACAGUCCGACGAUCUCUAAAUGAGGCCUAAAUGUGUGAAGUGCGAUUUCUGCUUUUGUGUACCCCACCACCCCAUUACCACAGCUGCCUUUGUGUGUUUGUGUCAAUAAAAAGCCAAACCCUGGUGGAAUUCUCGGGUGCCAA,0.419
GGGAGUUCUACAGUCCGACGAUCUGGCAGUGGGUUGGAAGAUUUCUACUGGGUCACAUGAUGUCUGGUAAUGCCAUCUUGAACUCCCUGUAAUAGUUGGAGACUGCACUUCCUGUCCCUAAAGGAAUGUGCGUUGGAAUUCUCGGGUGCCAA,0.7
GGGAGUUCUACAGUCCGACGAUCUCACACCUUUCCUGCCUGCGCAAACCUAGCUGUACCUAGCUGUACACGUCCUUUAUUAGAGAUGACCGAGGGGAAGCAGCUGCUGUUUAGCUGACCCCCCACAUGAGAAGUGGAAUUCUCGGGUGCCAA,1.11
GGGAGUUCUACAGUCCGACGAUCAAGUGAGGGUAGAACCUUUUGGGACUGGCCUUUGAAGCUCUGGCCAGGGAUGGGGUGGGGGCCAAAAGGACAGAGCCUGGUAUGUCUUCAUAGUCAUUGAGAAUGUGGAGUGGAAUUCUCGGGUGCCAA,0.899
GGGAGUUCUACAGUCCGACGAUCCACCCAAGCUCUGUUCAUGUUUUUGUGAAUUCUAGGCUGGUGCUGCACUGAAAUAGAGCAGUAAGCUUGUGAUAAAGGCCAAUUCCAGGUAGCUCUUGAAGGUGAUAGCCUGGAAUUCUCGGGUGCCAA,0.404
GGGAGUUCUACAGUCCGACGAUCUCCCUCCACACUUCCACUUUGUCCUCCUCGUCCCCUACCUCAACAAAGCAGGGUGGGGUAGGUGACAUUUGUGUAUCCACAUUCUUACCUUUGGUAGUCAGGUUUGGCUAUGGAAUUCUCGGGUGCCAA,1.19
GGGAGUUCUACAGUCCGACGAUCUGUGUGGUGAGGAACGCUCUCUUCUGGCCUCAAGCUCUUUGCCUCUUUGCCUUCAGCACCCUUGAUGUUCAUGGUUUACAUGGGUGGGGGUGGGAUGUAGAUAUGUGGGGUGGAAUUCUCGGGUGCCAA,0.377
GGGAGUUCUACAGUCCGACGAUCUUUUGCUAAUAGUUUGAGCACAAAUUGAAGCCCAGAAAUACUGAAAGCUUAUUAUUUUAUAUCCUUUAGGUAAUAUAUGUAUAUGCUAUAUACAUAUAAUUAUAUACAUAUGGAAUUCUCGGGUGCCAA,0.91
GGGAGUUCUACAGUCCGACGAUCUUUAAUUAUGCUUUUCCUCUAAAUAGCAACUUAAAUAUUUGCUAGACUUUGAAUCAUCGCUAUAUCAAGUAUCUAAAAUUUGGGAGGGUGAAUCAGUACACUGUGACCAAUGGAAUUCUCGGGUGCCAA,0.384

# Sample 4 — method: DHFR PCA, deep sequencing; medium: yeast; with: (+)-ABA 17 µM; baseline: wild-type fitted maximum; direction: higher = stronger binding
# Target: ABI1, truncated, D143A, DHFR fusion (Arabidopsis thaliana)
# Notes: methotrexate growth selection, single substitutions
# Starting sequence: PYL1, truncated, DHFR fusion (Arabidopsis thaliana); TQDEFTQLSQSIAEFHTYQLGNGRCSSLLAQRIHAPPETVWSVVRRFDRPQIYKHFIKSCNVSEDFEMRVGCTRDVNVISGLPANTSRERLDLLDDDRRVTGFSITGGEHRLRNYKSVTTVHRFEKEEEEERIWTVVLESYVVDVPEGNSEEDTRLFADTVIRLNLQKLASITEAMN
Variant,relative binding score
H55M,93.2%
F15I,33.3%
K168L,16.5%
E130G,88.5%
F66T,71.3%
Q31I,45.4%
D97K,99.9%
E14A,65%
I33V,70%
C72S,81.5%
A35Y,-5.76%
S87I,9.09%
E38D,79.7%
S59N,82.4%
G81S,27%
A30C,83.1%

# Sample 5 — method: universal PBM; form: double-stranded DNA, one strand shown; medium: in vitro; concentration: 600 nM; direction: higher = stronger binding
# Target: Sal-like protein 4, full length isoform A (SALL4, Homo sapiens, UniProt Q9UJQ4, residues 1-1053)
# UniProt Q9UJQ4, sequence (whole entry, looked up): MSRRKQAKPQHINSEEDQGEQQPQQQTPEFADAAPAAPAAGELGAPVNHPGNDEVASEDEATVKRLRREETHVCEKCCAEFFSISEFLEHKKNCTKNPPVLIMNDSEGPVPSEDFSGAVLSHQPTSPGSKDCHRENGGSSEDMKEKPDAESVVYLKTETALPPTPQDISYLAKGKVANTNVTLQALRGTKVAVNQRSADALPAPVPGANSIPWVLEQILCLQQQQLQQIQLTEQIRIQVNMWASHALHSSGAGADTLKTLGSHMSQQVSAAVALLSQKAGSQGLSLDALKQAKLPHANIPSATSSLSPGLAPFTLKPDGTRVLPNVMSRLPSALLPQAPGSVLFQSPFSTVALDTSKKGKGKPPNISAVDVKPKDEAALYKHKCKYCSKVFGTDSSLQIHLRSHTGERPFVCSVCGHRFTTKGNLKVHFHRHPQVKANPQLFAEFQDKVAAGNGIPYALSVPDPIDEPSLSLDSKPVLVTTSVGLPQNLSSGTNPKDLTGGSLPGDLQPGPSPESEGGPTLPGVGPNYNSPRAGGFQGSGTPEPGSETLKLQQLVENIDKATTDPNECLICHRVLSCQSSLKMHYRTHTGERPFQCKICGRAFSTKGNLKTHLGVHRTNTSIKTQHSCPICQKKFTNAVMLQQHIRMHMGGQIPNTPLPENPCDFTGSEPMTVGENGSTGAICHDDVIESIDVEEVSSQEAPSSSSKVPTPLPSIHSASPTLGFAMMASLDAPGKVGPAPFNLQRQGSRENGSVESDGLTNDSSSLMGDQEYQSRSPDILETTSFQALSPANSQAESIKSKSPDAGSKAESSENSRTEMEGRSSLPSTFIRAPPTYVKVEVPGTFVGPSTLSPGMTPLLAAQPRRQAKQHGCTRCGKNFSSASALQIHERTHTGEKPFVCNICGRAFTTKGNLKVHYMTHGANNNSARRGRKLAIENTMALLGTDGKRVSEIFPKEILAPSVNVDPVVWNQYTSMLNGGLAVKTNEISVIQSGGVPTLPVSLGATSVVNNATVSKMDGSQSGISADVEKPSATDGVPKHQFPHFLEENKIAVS
# Notes: 8-mer, flanks averaged, mean of replicates
Oligonucleotide,E-score
CTGCATGA,-0.127
GTCGTTGA,-0.0639
CAGAGGCA,-0.0439
GTCGCTCA,-0.163
CTCCTCCC,-0.344
AAGCCTCG,-0.202
ACACCTGT,-0.0576
AATACCCA,0.183
CAGTACTG,-0.242
ATTAGACC,0.005
ATGACTTA,0.148
AGGAGCGG,-0.371
GGTAAGAA,-0.113
TGCGTTAA,0.108
CGCATACA,0.112
CTTGCATA,0.174
AGATAAGA,0.275
CGCTTCAG,-0.092
ACCCTCCA,-0.125
GCACACGA,-0.0637
CTGGCTGC,-0.327
GACCTCAA,-0.0254
ATTATTTC,0.39
GTTGGGAA,-0.135
ACCTGGAT,-0.255

# Other studies, line by line
Substance,target,test,system,conditions,scale,endpoint,value
"PhoQ, residues 284 288 289 292 302 303 QWGLFV","PhoP, residues 12 14 15 18 19 GQALL (Escherichia coli, UniProt P23836)","Sort-seq, refers to: YFP reporter",E. coli,"PhoQ-PhoP variant library, with: 10 µM Mg2+","baseline: high Mg2+ state, higher = stronger signaling",fold induction,3.96

# Repeated from above (sample 5):
Oligonucleotide,E-score
CAGTACTG,-0.242
ATTAGACC,0.005
ATGACTTA,0.148
AGGAGCGG,-0.371
GGTAAGAA,-0.113
TGCGTTAA,0.108
CGCATACA,0.112
CTTGCATA,0.174
AGATAAGA,0.275
CGCTTCAG,-0.092
ACCCTCCA,-0.125
GCACACGA,-0.0637
CTGGCTGC,-0.327
GACCTCAA,-0.0254
ATTATTTC,0.39
GTTGGGAA,-0.135
